# Assay results collected from several papers.
# Protocols differ between the studies behind these lines. Values joined by “and” are separate records of one study, mostly repeats; a detail may differ. ± gives the spread as reported.
# TDP1: Tyrosyl-DNA phosphodiesterase 1 (TDP1, Homo sapiens, UniProt Q9NUW8)
# Sequence of UniProt Q9NUW8 (whole entry, looked up): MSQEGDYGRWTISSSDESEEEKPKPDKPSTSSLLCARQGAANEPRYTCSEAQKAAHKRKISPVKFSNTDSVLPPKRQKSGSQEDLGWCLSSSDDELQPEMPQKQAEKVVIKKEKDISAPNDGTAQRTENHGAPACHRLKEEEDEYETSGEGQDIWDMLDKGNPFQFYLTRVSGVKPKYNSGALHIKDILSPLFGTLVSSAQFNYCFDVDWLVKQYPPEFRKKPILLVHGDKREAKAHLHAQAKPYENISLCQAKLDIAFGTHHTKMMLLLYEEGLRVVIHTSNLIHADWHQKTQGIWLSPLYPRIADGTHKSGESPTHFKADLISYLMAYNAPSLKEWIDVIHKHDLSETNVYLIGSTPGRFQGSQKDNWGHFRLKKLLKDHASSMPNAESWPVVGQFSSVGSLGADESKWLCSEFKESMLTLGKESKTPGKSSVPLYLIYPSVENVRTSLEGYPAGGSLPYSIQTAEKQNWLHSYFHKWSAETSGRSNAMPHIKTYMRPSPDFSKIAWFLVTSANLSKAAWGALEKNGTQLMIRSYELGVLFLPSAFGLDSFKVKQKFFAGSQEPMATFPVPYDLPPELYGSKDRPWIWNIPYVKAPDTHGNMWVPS
SMILES,tested on,assay,test system,setting,how to read,quantity,value
O=C1NC2(CC2)COc2ncc(F)cc2[C@H]2COCCN2c2ccn3ncc1c3n2,Salmonella typhimurium,Ames test,TA102,"5000 µg/plate, 48 h, added: rat liver S9",,revertant colonies,395 ± 11 revertants/plate
CCN(CC)CC#CCNc1ccnc2cc(Cl)ccc12,Salmonella typhimurium,mini-Ames test,TA1535,"1000.0 µg/well, without S9",,revertants,1 revertants/well and 4 revertants/well
O=C1C2CC3CC1CC(C(=O)N1CCN(c4ccc([N+](=O)[O-])c5ncccc45)CC1)(C3)C2,Salmonella typhimurium,Ames test,TA98,"0.05 µg/well, without S9",,mean revertant colonies,5 colonies/well
Cn1nc(COC(=O)c2ccccc2)c(=O)c2c(=O)[nH]c(N)nc21,Escherichia coli,LC-MS/MS,BW25113,"100 µM, 10 min, 37 °C",,intracellular accumulation,< 0.78 µM
Cc1c(C=NOCc2ccc3nc(-c4ccccc4)c(Nc4ccc(C(=O)O)cc4)n3c2)cnn1CCC(=O)O (mixture of isomers),TDP1,"enzyme activity, inhibitor",,"100 µM, unpurified compound",,inhibition,7.9%
CN(Cc1nn(C)c2nc(N)[nH]c(=O)c2c1=O)c1nnn[nH]1,Escherichia coli,LC-MS/MS,BW25113,"100 µM, 10 min, 37 °C",,intracellular accumulation,9.92 ± 0.5 µM
Nc1nc2cc(C(=O)c3ccc(F)cc3)ccc2[nH]1,Salmonella typhimurium,Ames preincubation test,TA100,"78.0 µg per plate, 3 days, without S9, lawn reduction",,revertants,106 revertants per plate
Cn1nc(CCCC(=O)O)c(=O)c2c(=O)[nH]c(N)nc21,Escherichia coli,LC-MS/MS,BW25113,"100 µM, 10 min, 37 °C",,intracellular accumulation,3.18 µM
COC(=O)Nc1nc2cc(C(O)c3ccc(F)cc3)ccc2[nH]1 (centres unmarked),Escherichia coli,Ames preincubation test,WP2 uvrA,"109.4 µg/plate, without S9",,revertants,37.3 revertants/plate
CC(C)(C)NCC(SS(=O)(=O)O)c1ccccc1 (centres unmarked),Schistosoma mansoni,perfusion day 35,infected Swiss Webster mice,100 mg/kg,,body weight,24.8 g and 25.9 g and 28.1 g
CC(CC(=O)O)c1nn(C)c2nc(N)[nH]c(=O)c2c1=O (centres unmarked),Escherichia coli,LC-MS/MS,BW25113,"100 µM, 10 min, 37 °C",,intracellular accumulation,4.42 ± 0.5 µM
O=C(O)CCCOc1ccc(O)cc1-c1cc(-c2ccccc2C(F)(F)F)n(-c2ccccc2)n1,Escherichia coli,Ames reverse mutation test,WP2 uvrA,"concentration not given, without S9",,mutagenicity,negative
CC(C)OCCOCc1ccc(OCC(O)CN(N=O)C(C)C)cc1 (centres unmarked),Escherichia coli,Ames test,WP2 uvrA,"158 µg/plate, 30 % rat S9",reference: solvent control,revertant fold increase,0.9 fold
O=C(O)c1ccc(Nc2c(-c3ccc(CON=Cc4cccnc4Oc4ccc(Cl)cc4)cc3)nc3cc(-c4ccccc4)ccn23)cc1,TDP1,"enzyme activity, inhibitor",,"100 µM, unpurified compound",,inhibition,17.7%

# A few entries again:
SMILES,tested on,assay,test system,setting,how to read,quantity,value
O=C1NC2(CC2)COc2ncc(F)cc2[C@H]2COCCN2c2ccn3ncc1c3n2,Salmonella typhimurium,Ames test,TA102,"5000 µg/plate, 48 h, added: rat liver S9",,revertant colonies,395 ± 11 revertants/plate
